# Measured values pooled from the literature.
# Parts stem from different laboratories: compare values within a part only. Substitutions count along the parent as printed.

# Sample 1 — target: CCNA1, cyclin fold, Cln2 fusion (human); technique: yeast growth competition, sequencing; sample: yeast; setting: weak parent motif; baseline: not given; direction: higher = stronger binding
# Parent: PKN2 docking peptide (human); VSAVQKLDFSDTM
Change,normalised enrichment score
V1W,0.0284
D11H,0.201
F9G,0.354
D11G,0.352
S10V,0.233
S10A,0.232
K6D,0.124
S2F,0.0119
D11M,-0.0251
A3K,0.0491
F9H,0.119
V4S,-0.203

# Sample 2 — technique: DHFR PCA, deep sequencing; sample: yeast; with: (+)-ABA 2500 µM; baseline: wild-type fitted maximum; direction: higher = stronger binding
# Target: ABI1, truncated, D143A, DHFR fusion (Arabidopsis thaliana)
# Setting: methotrexate growth selection, single substitutions
# Parent: PYL1, truncated, DHFR fusion (Arabidopsis thaliana); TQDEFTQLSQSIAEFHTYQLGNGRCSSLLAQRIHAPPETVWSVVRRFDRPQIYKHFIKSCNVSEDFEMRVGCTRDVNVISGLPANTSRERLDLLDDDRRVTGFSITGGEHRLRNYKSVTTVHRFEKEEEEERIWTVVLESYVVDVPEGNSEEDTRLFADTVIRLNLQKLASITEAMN; partner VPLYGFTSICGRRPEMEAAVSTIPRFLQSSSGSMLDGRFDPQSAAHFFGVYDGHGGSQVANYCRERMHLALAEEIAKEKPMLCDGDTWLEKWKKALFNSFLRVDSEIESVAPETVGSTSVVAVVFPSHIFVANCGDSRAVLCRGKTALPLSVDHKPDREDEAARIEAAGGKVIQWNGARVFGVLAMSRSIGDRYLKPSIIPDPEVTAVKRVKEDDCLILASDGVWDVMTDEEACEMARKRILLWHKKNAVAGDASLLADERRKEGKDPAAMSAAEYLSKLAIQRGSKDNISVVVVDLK
Change,relative binding score
D144M,85.9%
S42L,93.7%
L156C,95%
R45H,75.8%
D144Y,75.2%
R123L,102%
T101Y,91.3%
L166S,31.3%
F124C,103%

# Sample 3 — technique: RNA Bind-n-Seq; molecule type: RNA; sample: in vitro; concentration: 365 nM; baseline: no-protein control; direction: higher = stronger binding
# Target: RNA binding protein fox-1 homolog 2, RRM domain, GST-SBP tag (RBFOX2, Homo sapiens, UniProt O43251-10, residues 100-194)
# Setting: natural RNA segment, single round, ends assumed
# Shared flanks, not repeated: GGGAGUUCUACAGUCCGACGAUC … UGGAAUUCUCGGGUGCCAA
# Target sequence (chain): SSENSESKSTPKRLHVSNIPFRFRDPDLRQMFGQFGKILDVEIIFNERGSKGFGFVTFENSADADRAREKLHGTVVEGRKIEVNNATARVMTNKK
Sequence,RBNS enrichment (R)
ACGGAGUGUCACUUUCAACCGGCCUCCCCUACCCCUGCUGGCCGGGGAUGGAGACAUGUCAUUUGUAAAAGCAGAAAAAGGUUGCAUUUGUUCACUUUUGUAAUAUUGUC,0.334
ACACUUUUGACAGUAUUUUGUUUUGCCCUGAUUUGGGGGAUUGUUUUGUUUUGGUGGUUGUUUUGGAAAAACAGUUUAUAAACUGAUUUUUGUAGUUUUGGUAUUUAAAG,5.27
CUUCUAGAAUGCUCUGUCCAGGGUCUGCAACUUCCCUGGGCUCUGACUUAGGAGUGAUGUGGCUAACUGAGGCCUGAGUGAGUGUGUAGAUUGUCCUUGGGUGAGUGAGA,3.82
UGCAAGUUUUAGAUCCAAUCUGCCUCAACAGUCAAUCAGUGUUCAUAUUUAUGGCCAGGCAUUCUAUCUGUUAGACAAUCGAGUUGGGGGUAGGGCAGCCUAGCUCUUUU,2.39
UUUUCAAAGAAACAGCUGUGCUAAUGUCUUUGGUUUCCCGAUGAGUGUACACUACUGUAUAAUUUAUGUUUACCAUAUGAGUCUUGAAACACUACAGAUAUUUUGAAUAU,0.561
GACUGUCUUGCGGCUCCUCUAUAGGAAAGAGUACUGAUGCCUGUCCGGCCCCGGUUCCCCUCAGGUCCCUGUGCUCUGGUCAUUGCAGUGAUGGCUCACUCAGACUGUCC,0.294
CAUCCUGGAGUGCCUCAGUGACUGAGCAUCCUGAGGGCAAUGGCUGGGUCUCCUCAACUCUGCCCCAGCUUCUCGCAGCACAGGGCCAGGCACCAAGUGCGUAGGCGACG,0.346
GGUGUUAUUUGCAUGUGUGGGUUUCUCACAAGGCUCCCUCCCUUCCUCAGAAGGUUCAUCACGGAAUUUCCUGACAUGCACUGUAGAUGCUACAAACAUGUCUACCCAGG,24.2
UUGAAUAAUGGCCCAUUCAUGCCAACCUUGCCAACACGGAGAGGGCAGAGAUGCACUAGAAGACCUUCAUCCUCCCCUUCCUCUGCCCCAAGUCACUACAGUUGGUUCUA,0.661
CUGCUCACUUAGAUGUACCUUGUGCUUUGAAGAUUUCUUUGAUGCAGUCUUUGUAACAAAUAAUUUUUUUUUUUAAAUGGAGUUUCUCUCUUGUUGCCCAGGCUGGAGGG,0.748

# Single results of other studies
Substance,target,test,test system,conditions,how to read,endpoint,value
"PhoQ, residues 284 288 289 292 302 303 TYGVAM","PhoP, residues 12 14 15 18 19 IQSYL (Escherichia coli, UniProt P23836)","Sort-seq, item: YFP reporter",E. coli,"PhoQ-PhoP variant library, with: 10 µM Mg2+","baseline: high Mg2+ state, higher = stronger signaling",fold induction,14.6
